Measurements pooled from the literature.
Numbers after ± are the reported error.

C/C=C/C=C/C/C=C/CCCCCCCc1cccc(O)c1O has a tissue concentration of 5930 ± 870 ng/g (female Kunming mice, tumour-bearing, heart; intravenous, 10 mg/kg, 4 h).
The serum creatinine of CN(C)C(CNC(=O)Nc1cc(C(F)(F)F)ccc1N1CCOCC1)c1ccncc1 (stereo not drawn) is reported as 0.2 mg/dL (mouse, serum; intraperitoneal, 240 mg/kg single dose).
COc1cc2c3c(c4cc(OC)c(OC)cc4c2cc1OC)C(=O)N1CCCC1C3 (stereo not drawn) has a CC50 of greater than 100 µM (swine cells; 24 (unit not given)).
For CC(C)[C@H](NC(=O)CNC(=O)[C@H](CCC(N)=O)NC(=O)[C@H](C)N)C(=O)O, “subjects with mild AE” read 25% (healthy male volunteers; intravenous, 45 mg/kg/h, 2 h, together with: LPS 2 ng/kg).
With CSCC[C@H](NC(=O)CNC(=O)[C@H](CC(=O)O)NC(=O)[C@@H](NC(=O)[C@@H](NC(=O)[C@@H](NC(=O)CNC(=O)[C@H](CCC(=O)O)NC(=O)[C@H](CCSC)NC(=O)[C@H](CC(=O)O)NC(=O)[C@H](C)NC(=O)[C@H](C)NC(=O)[C@@H](NC(=O)[C@H](CO)NC(=O)[C@@H](N)CC(C)C)[C@@H](C)O)C(C)C)C(C)C)[C@@H](C)O)C(=O)N[C@@H](C)C(=O)N[C@@H](CO)C(=O)NCC(=O)N[C@@H](CC(C)C)C(=O)N[C@@H](CC(=O)O)C(=O)N[C@@H](CCCCN)C(=O)N[C@@H](CC(=O)O)C(=O)N[C@@H](Cc1ccc(O)cc1)C(=O)N[C@@H](CC(C)C)C(=O)N[C@@H](CCCCN)C(=O)N1CCC[C@H]1C(=O)N[C@@H](CC(=O)O)C(=O)N[C@@H](CC(=O)O)C(=O)O the Vss was 4.1 L/kg (mice; intravenous, dose not given).
N=C(N)NCCC[C@@H]1NC(=O)[C@H](CCCNC(=N)N)NC(=O)[C@H](CCCNC(=N)N)NC(=O)[C@H](CCCNC(=N)N)NC(=O)[C@H](Cc2c[nH]c3ccccc23)NC(=O)[C@H](CCCNC(=N)N)NC(=O)[C@H](CCCNC(=N)N)NC(=O)[C@@H](N)CCCn2cc(nn2)C[C@@H](C(N)=O)NC1=O has a hatching rate of 8% (zebrafish embryos; 25 µg/mL, 72 h).
The tissue uptake of COc1ccc(C)cc1NC(=O)OC1CC2CCCC(C1)N2Cc1ccc(CC[18F])cc1 (stereo not drawn) is reported as 2.12 ± 0.21 %ID/g (BALB/c mice, EMT6 tumour, brain; 30 min).
Under “mean residue ellipticity”, CC[C@@H](C)[C@@H](NC(=O)[C@@H](C)NC(=O)[C@@H](CCCCN)NC(=O)[C@@H](CC(C)C)NC(=O)[C@@H](C)NC(=O)[C@H](NC(=O)[C@@H](Cc1c[nH]cn1)NC(=O)[C@@H](CC(C)C)NC(=O)[C@H](NC(=O)[C@H](NC(=O)[C@@H](CCCCN)NC(=O)[C@@H](CCCCN)NC(=O)[C@@H](C)NC(=O)[C@@H](CO)NC(=O)[C@@H](CCCCN)NC(=O)[C@@H](Cc1ccccc1)NC(=O)[C@H](NC(=O)[C@@H](CCCCN)NC(=O)[C@@H](CC(C)C)NC(=O)[C@@H](Cc1ccccc1)NC(=O)[C@@H](CO)NC(=O)[C@@H](CCCCN)NC(=O)[C@@H](Cc1c[nH]c2ccccc12)NC(=O)[C@@H](CCCCN)NC(C)=O)[C@H](C)O)[C@H](C)O)C(C)C)[C@H](C)O)C(=O)N[C@H](CO)C(=O)N[C@H](CO)C(N)=O is recorded as 34100 deg cm²/dmol (circular dichroism; buffer with 50% TFE; 5 °C, at 222 nm).
For CC(C)[C@H](NC(=O)CNC(=O)[C@H](CCC(N)=O)NC(=O)[C@H](C)N)C(=O)O, “unlikely related or unrelated adverse events” read 16.7% (human; 10 mg/kg thrice daily, 3 days).
For CCCCCCCCCCCCC(=O)O.O=C1CCCC2C3CCCN4CCCC(CN12)C34 (stereo not drawn), “critical micelle concentration” read 0.00235 mol/kg (water; concentration not given, 293.15 K).
CC[C@H](C)[C@H](NC(=O)[C@H](CCCN)NC(=O)[C@H](CC(N)=O)NC(=O)[C@H](Cc1c[nH]c2ccccc12)NC(=O)[C@H](Cc1ccccc1)NC(=O)[C@H](CCCN)NC(=O)[C@H](CCCCNC(=N)N)NC(=O)[C@H](CC(C)C)NC(=O)[C@H](Cc1c[nH]c2ccccc12)NC(=O)[C@H](CCCN)NC(=O)[C@H](CCCCNC(=N)N)NC(=O)[C@H](CC(C)C)NC(=O)CNC(C)=O)C(=O)N[C@@H](CCCN)C(=O)N[C@@H](CCCCNC(=N)N)C(N)=O: “serum biochemistry and haematology” “no effect” (measured: ALT, AST, LDH, creatinine, BUN; Kunming mice; intravenous, 10 mg/kg, day 10; baseline: control).
O.[C-]#[O+].[C-]#[O+].[C-]#[O+].[Re+].c1cnc2c(c1)ccc1cccnc12 gave a capacity factor of 2.1 (RP-HPLC C18 column, measured: aqua complex; MeCN:water 40:60, 0.1% TFA; isocratic elution).
Under “volume of distribution at steady state”, CC(C)C[C@H](NC(=O)[C@H](CCCCN)NC(=O)[C@H](CCC(=O)O)NC(=O)[C@H](C)NC(=O)[C@@H](NC(=O)[C@H](CCCCN)NC(=O)[C@H](CC(=O)O)NC(=O)[C@H](Cc1ccc(O)cc1)NC(=O)[C@H](Cc1ccccc1)NC(=O)[C@H](C)NC(=O)[C@H](CCCCN)NC(=O)[C@H](CC(C)C)NC(=O)[C@H](Cc1c[nH]c2ccccc12)NC(=O)[C@@H](N)CC(=O)O)C(C)C)C(=O)N[C@@H](CCCCN)C(=O)N[C@@H](CCC(=O)O)C(=O)N[C@@H](C)C(=O)N[C@@H](Cc1ccccc1)C(=O)N1CCC[C@H]1C(=O)N[C@@H](CC(=O)O)C(=O)N[C@@H](Cc1c[nH]c2ccccc12)C(=O)N[C@@H](C)C(=O)N[C@@H](CCCCN)C(=O)N[C@@H](C)C(=O)N[C@@H](C)C(=O)N[C@@H](Cc1ccc(O)cc1)C(=O)N[C@@H](CC(=O)O)C(=O)N[C@@H](CCCCN)C(=O)N[C@@H](C)C(=O)N[C@@H](C)C(=O)N[C@@H](CCC(=O)O)C(=O)N[C@@H](CCCCN)C(=O)N[C@@H](C)C(=O)N[C@@H](CCCCN)C(=O)N[C@@H](CCC(=O)O)C(=O)N[C@@H](C)C(=O)N[C@@H](C)C(=O)O is recorded as 0.054 L/kg (cynomolgus monkey female, plasma; intravenous infusion, 8 mg/kg every other day, day 27).
[11CH3]Sc1ccc(C(=O)C2CCN(C3Cc4ccccc4CC3O)CC2)cc1 (single isomer, unassigned; (-)): “time to maximum uptake” roughly 9 min (PET imaging; cynomolgus monkey, striatum).
The haematocrit of CC(C)[C@@H]1NC(=O)[C@H](Cc2ccccc2)NC(=O)[C@H](Cc2ccc(O)cc2)NC(=O)CCSSC[C@@H](C(=O)N2CCC[C@H]2C(=O)N[C@H](CCCNC(=N)N)C(=O)NCC(N)=O)NC(=O)[C@H](CCC(N)=O)NC1=O is reported as 41.2 ± 1.7% (Wistar rat, blood; intravenous, 100 µg/kg single dose, 72 h).
With O=C(N=P12CN3CN(CN(C3)C1)C2)c1ccccn1.[Cl][Au+][Cl].[O-][Cl+3]([O-])([O-])[O-] the decomposition time was 30 min (NMR; DMSO:water 50:50).
CC[C@H](C)C(=O)N1CCC(NC(=O)Nc2ccc(OC(F)(F)F)c(F)c2)CC1 gave an AUC(0-48h) of 1320 ng·h/mL (human, fasted, plasma; oral, 8 mg, single dose, geometric least-squares mean).
O=C(CN1CCN(c2cc3c(cc2F)c(=O)c(C(=O)O)cn3C2CC2)CC1)Nc1ccc(Cl)cc1 gave a Vss of 2.2 mL (BALB/c mice female; intravenous, 1.25 mg/kg).
For CCCCCCCC(=O)NCCCC[C@H](NC(=O)[C@H](Cc1ccccc1)NC(=O)[C@@H](CCCNC(=N)N)NC(=O)[C@@H](N)Cc1ccc(O)cc1)C(N)=O, the Vd was 0.0452 L (male CD-1 mouse, plasma; intravenous, 3 mg/kg).
CCOP(=O)(OCC)OCCCCOC(=O)CC1=C(C)/C(=C/c2ccc([S+](C)[O-])cc2)c2ccc(F)cc21 (stereo not drawn) gave a Cmax of 680 nmol/g tissue (rat, muscle; topical, dose not given).
The survival of Cc1ccccc1CN1CCC(O)(c2ccc(Cl)c(C(F)(F)F)c2)CC1 is reported as 100% (BALB/c mouse; intraperitoneal, 50 mg/kg, 96 h).

A few entries again:
O.[C-]#[O+].[C-]#[O+].[C-]#[O+].[Re+].c1cnc2c(c1)ccc1cccnc12 gave a capacity factor of 2.1 (RP-HPLC C18 column, measured: aqua complex; MeCN:water 40:60, 0.1% TFA; isocratic elution).
Under “volume of distribution at steady state”, CC(C)C[C@H](NC(=O)[C@H](CCCCN)NC(=O)[C@H](CCC(=O)O)NC(=O)[C@H](C)NC(=O)[C@@H](NC(=O)[C@H](CCCCN)NC(=O)[C@H](CC(=O)O)NC(=O)[C@H](Cc1ccc(O)cc1)NC(=O)[C@H](Cc1ccccc1)NC(=O)[C@H](C)NC(=O)[C@H](CCCCN)NC(=O)[C@H](CC(C)C)NC(=O)[C@H](Cc1c[nH]c2ccccc12)NC(=O)[C@@H](N)CC(=O)O)C(C)C)C(=O)N[C@@H](CCCCN)C(=O)N[C@@H](CCC(=O)O)C(=O)N[C@@H](C)C(=O)N[C@@H](Cc1ccccc1)C(=O)N1CCC[C@H]1C(=O)N[C@@H](CC(=O)O)C(=O)N[C@@H](Cc1c[nH]c2ccccc12)C(=O)N[C@@H](C)C(=O)N[C@@H](CCCCN)C(=O)N[C@@H](C)C(=O)N[C@@H](C)C(=O)N[C@@H](Cc1ccc(O)cc1)C(=O)N[C@@H](CC(=O)O)C(=O)N[C@@H](CCCCN)C(=O)N[C@@H](C)C(=O)N[C@@H](C)C(=O)N[C@@H](CCC(=O)O)C(=O)N[C@@H](CCCCN)C(=O)N[C@@H](C)C(=O)N[C@@H](CCCCN)C(=O)N[C@@H](CCC(=O)O)C(=O)N[C@@H](C)C(=O)N[C@@H](C)C(=O)O is recorded as 0.054 L/kg (cynomolgus monkey female, plasma; intravenous infusion, 8 mg/kg every other day, day 27).
[11CH3]Sc1ccc(C(=O)C2CCN(C3Cc4ccccc4CC3O)CC2)cc1 (single isomer, unassigned; (-)): “time to maximum uptake” roughly 9 min (PET imaging; cynomolgus monkey, striatum).
